Assay results pooled from the literature.
Several values in a cell are separate wells, animals, samples, runs or records. ± marks the error that the study gave.

Structure (SMILES)	test	test system	conditions	scale	quantity	result
COc1ncc(-c2nc3c(n2C(C)C)[C@H](c2ccc(Cl)cc2)N(c2cc(Cl)cn(C)c2=O)C3=O)c(OC)n1		human patients, plasma	oral, 4 mg, cycle 1 day 1, low-dose		median Tmax	2.5 h
C=CC(=O)N1CCC(Oc2cc3c(Nc4ccc(Cl)c(Cl)c4F)ncnc3cc2OC)CC1		Sprague-Dawley rat male, plasma	oral, 2 mg/kg, with: schisandrin A 20 mg/kg daily 1 weeks pretreatment	reference: no pretreatment	Vz/F ratio	0.33 fold
CCc1cc(C(=O)NC)c2nccc(N3CCc4c(cc(Cn5ccnc5)cc4-c4cn(C)nc4C(F)(F)F)C3=O)c2c1		Sprague Dawley rat	oral, 100 mg/kg once daily, 7 days	reference: vehicle	heart weight change	-2.44%
CC(C)(C(=O)N1CCOc2c(C#N)cncc2C1)C(F)F	measured: renal and urinary disorders	human, both sexes	oral, 20 mg twice daily, 14 days, multiple ascending dose		subjects with TEAE	0%
CN(C)C(=N)N=C(N)N	measured: vessel puncture site pain	healthy men	oral, dose not given, 8 days, treatment-emergent, crossover trial		subjects with adverse event	0%
C=CC(=O)Nc1cc(Nc2nccc(-c3cn(C)c4ccccc34)n2)c(OC)cc1N(C)CCN(C)C	storage stability	human dried blood spots	5 h, -80 °C, medium QC level		recovery	89.9%
O=C(CCC(C(=O)[O-])N1CCN(C(CCC(=O)NCC(O)CO)C(=O)[O-])Cc2cccc(n2)CN(C(CCC(=O)NCC(O)CO)C(=O)[O-])CC1)NCC(O)CO.[Gd+3] (stereo not drawn)	LC-ICP-MS	human plasma	pH 7.4, 37 °C		dissociation rate	0.014 %/day
C=CC(=O)N1CCC(c2ccc(C(N)=O)c(-c3ccc(Oc4ccccc4)cc3)n2)CC1		relapsed/refractory mantle cell lymphoma patients	oral, dose not given, part, all doses, CTCAE v4.03		number of treatment-related AEs	39
CO[C@H]1C[C@@H]2CC[C@@H](C)[C@@](O)(O2)C(=O)C(=O)N2CCCC[C@H]2C(=O)O[C@H]([C@H](C)C[C@@H]2CC[C@@H](OC(=O)NCCOCCOCCOCCOCCOCCOCCOCCOCCC(=O)N3CCc4cc(Cn5nc(-c6ccc7oc(N)nc7c6)c6c(N)ncnc65)ccc4C3)[C@H](OC)C2)C[C@@H](O)[C@H](C)/C=C(\C)[C@@H](O)[C@@H](OC)C(=O)[C@H](C)C[C@H](C)/C=C/C=C/C=C/1C		human, plasma	intravenous, 12 mg, cycle 1 day 15, arithmetic mean		half-life	5.5 h
CCc1nc(C(N)=O)c(Nc2ccc(N3CCC(N4CCN(C)CC4)CC3)c(OC)c2)nc1NC1CCOCC1		processed mouse plasma	425 ng/mL, 24 h, 4 °C		re-injection stability accuracy	102%
N[C@@H](C[18F])C(=O)O	PET imaging	female athymic nude mice, U-87 MG xenograft	intravenous, 20 min	reference: tumour over muscle	tumour-to-muscle ratio	1.63 ± 0.26
Cc1cccc(CNC(=O)c2cn(CCNC(=O)c3ccccc3S)c3cc4c(cc3c2=O)OC(F)(F)O4)n1		Sprague-Dawley rat, male, whole blood	intramuscular, 10 mg/kg of parent drug		bioavailability	42%
O=C(Nc1nc2cccc(-c3ccc(CN4CCS(=O)(=O)CC4)cc3)n2n1)C1CC1	measured: blood and lymphatic disorders	rheumatoid arthritis patients	oral, 150 mg once daily, 4 weeks, any relatedness		treatment-emergent adverse events	0%
FC(F)(F)c1ccc(CNc2ccc(Cc3c[nH]c4ncc(Cl)cc34)cn2)cn1	measured: Anemia	patients with advanced solid tumours, all cohorts	oral, 1000 mg/day, any grade		treatment-related adverse events	12%
Cc1nc2ccc(OCc3ccc(C(F)(F)F)cc3)cc2[nH]1		Balb/c mouse, male, liver	intravenous, 1 mg/kg, 3 h	reference: tissue over plasma	tissue/plasma ratio	12.9 ± 1.5
CC[C@H](C)[C@H](NC(=O)[C@H](Cc1ccccc1)NC(=O)[C@H](CCC(=O)O)NC(=O)[C@H](CCCCNC(=O)COCCOCCNC(=O)COCCOCCNC(=O)CC[C@H](NC(=O)CCCCCCCCCCCCCCCCC(=O)O)C(=O)O)NC(=O)[C@H](C)NC(=O)[C@H](C)NC(=O)[C@H](CCC(N)=O)NC(=O)CNC(=O)[C@H](CCC(=O)O)NC(=O)[C@H](CC(C)C)NC(=O)[C@H](Cc1ccc(O)cc1)NC(=O)[C@H](CO)NC(=O)[C@H](CO)NC(=O)[C@@H](NC(=O)[C@H](CC(=O)O)NC(=O)[C@H](CO)NC(=O)[C@@H](NC(=O)[C@H](Cc1ccccc1)NC(=O)[C@@H](NC(=O)CNC(=O)[C@H](CCC(=O)O)NC(=O)C(C)(C)NC(=O)[C@@H](N)Cc1cnc[nH]1)[C@@H](C)O)[C@@H](C)O)C(C)C)C(=O)N[C@@H](C)C(=O)N[C@@H](Cc1c[nH]c2ccccc12)C(=O)N[C@@H](CC(C)C)C(=O)N[C@H](C(=O)N[C@@H](CCCNC(=N)N)C(=O)NCC(=O)N[C@@H](CCCNC(=N)N)C(=O)NCC(=O)O)C(C)C	12-lead Holter ECG	healthy humans	subcutaneous, 1.5 mg once weekly, 18 h, steady state	reference: placebo	QTcB change from baseline	9 ms
CCN1CCN(Cc2ccc(NC(=O)c3ccc(C)c(NC(=O)c4cncc(-c5cccs5)c4)c3)cc2C(F)(F)F)CC1	LC-MS/MS	C57BL/6 mouse, plasma	intraperitoneal, 10 mg/kg single dose, 0.25 h		plasma concentration	0.436 µg/mL and 0.444 µg/mL and 0.58 µg/mL
COc1cc(C(=O)NC2CCN(C)CC2)c(F)cc1Nc1ncc(C(F)(F)F)c(Oc2cccc3c2C(=O)N(C)C3)n1		human patients, plasma	oral, 100 mg single dose, geometric mean		dose-normalised AUC(0-inf)	230 nmol·h/L per mg

Excerpt of the above:
Structure (SMILES)	test	test system	conditions	scale	quantity	result
CCc1nc(C(N)=O)c(Nc2ccc(N3CCC(N4CCN(C)CC4)CC3)c(OC)c2)nc1NC1CCOCC1		processed mouse plasma	425 ng/mL, 24 h, 4 °C		re-injection stability accuracy	102%
